# Assay results pooled from the literature.
# “And” joins repeats or separate records; there may be more than shown. ± marks the error that the study gave.
# TDP1: Tyrosyl-DNA phosphodiesterase 1 (TDP1, Homo sapiens, UniProt Q9NUW8)
# Sequence of UniProt Q9NUW8 (whole entry, looked up): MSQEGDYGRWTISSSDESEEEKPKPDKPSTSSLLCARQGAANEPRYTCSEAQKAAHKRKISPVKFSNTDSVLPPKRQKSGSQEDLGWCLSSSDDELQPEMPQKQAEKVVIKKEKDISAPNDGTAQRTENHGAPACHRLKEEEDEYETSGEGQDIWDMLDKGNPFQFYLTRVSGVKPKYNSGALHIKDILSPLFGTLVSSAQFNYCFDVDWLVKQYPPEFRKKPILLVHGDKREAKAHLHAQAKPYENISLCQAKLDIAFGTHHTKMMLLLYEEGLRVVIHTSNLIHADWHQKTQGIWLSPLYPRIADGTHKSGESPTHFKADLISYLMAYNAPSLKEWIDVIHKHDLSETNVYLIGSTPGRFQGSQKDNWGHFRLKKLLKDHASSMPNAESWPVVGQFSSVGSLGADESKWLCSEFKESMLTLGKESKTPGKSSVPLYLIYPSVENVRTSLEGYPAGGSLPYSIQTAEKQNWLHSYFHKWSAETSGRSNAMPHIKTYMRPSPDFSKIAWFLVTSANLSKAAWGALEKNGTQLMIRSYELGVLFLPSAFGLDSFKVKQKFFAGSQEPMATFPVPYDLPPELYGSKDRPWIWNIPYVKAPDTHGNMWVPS
SMILES,tested on,test,system,setting,how to read,quantity,result
Cn1nc(CO)c(=O)c2c(=O)[nH]c(N)nc21,Escherichia coli,LC-MS/MS,BW25113,"100 µM, 10 min, 37 °C",,intracellular accumulation,11.4 µM
Nc1nc2cc(C(=O)c3ccc(F)cc3)ccc2[nH]1,Salmonella typhimurium,Ames preincubation test,TA100,"78.0 µg per plate, 3 days, without S9, lawn reduction",,revertants,106 revertants per plate
O=C1NC2(CC2)COc2ncc(F)cc2[C@H]2COCCN2c2ccn3ncc1c3n2,Salmonella typhimurium,Ames test,TA102,"5000 µg/plate, 48 h, with: rat liver S9",,revertant colonies,395 ± 11 revertants/plate
O=C1C2CC3CC1CC(C(=O)N1CCN(c4ccc([N+](=O)[O-])c5ncccc45)CC1)(C3)C2,Salmonella typhimurium,Ames test,TA98,"0.05 µg/well, without S9",,mean revertant colonies,5 colonies/well
CCN(CC)CC#CCNc1ccnc2cc(Cl)ccc12,Salmonella typhimurium,mini-Ames test,TA97a,"250.0 µg/well, with rat liver S9",,revertants per well,1
CC(CC(=O)O)c1n[nH]c2nc(N)[nH]c(=O)c2c1=O (centres unmarked),Escherichia coli,LC-MS/MS,BW25113,"100 µM, 10 min, 37 °C",,intracellular accumulation,3.02 ± 0.2 µM
CC(C)(C)NCC(SS(=O)(=O)O)c1ccccc1 (centres unmarked),Schistosoma mansoni,perfusion day 44,infected Swiss Webster mice,"600 mg/kg single dose, dosed day 1 post-infection",,body weight,31 g and 32.9 g and 32.3 g
N#Cc1ccc(-c2ccc(C=NOCc3ccc(-c4nc5cc(-c6ccccc6)ccn5c4Nc4ccc(C(=O)O)cc4)cc3)cc2)nc1,TDP1,"enzyme activity, inhibitor",,"100 µM, unpurified oxime",,inhibition,98.7%
CC(C)OCCOCc1ccc(OCC(O)CN(N=O)C(C)C)cc1 (centres unmarked),Salmonella typhimurium,Ames test,TA1535,"1580 µg/plate, without metabolic activation",relative to: solvent control,revertant fold increase,0.6 fold
COC(=O)Nc1nc2cc(C(O)c3ccc(F)cc3)ccc2[nH]1 (centres unmarked),Escherichia coli,Ames preincubation test,WP2 uvrA,"109.4 µg/plate, without S9",,revertants,37.3 revertants/plate
Cn1nc(CCCC(=O)O)c(=O)c2c(=O)[nH]c(N)nc21,Escherichia coli,LC-MS/MS,BW25113,"100 µM, 10 min, 37 °C",,intracellular accumulation,3.18 µM
O=C(O)c1ccc(Nc2c(-c3ccccc3)nc3ccc(CON=Cc4csc(-c5cccc(Cl)c5)n4)cn23)cc1 (mixture of isomers),TDP1,"enzyme activity, inhibitor",,"100 µM, unpurified compound",,inhibition,6.5%
Nc1nc2[nH]nc(CC(=O)O)c(=O)c2c(=O)[nH]1,Escherichia coli,LC-MS/MS,BW25113,"100 µM, 10 min, 37 °C",,intracellular accumulation,1.84 µM
O=C(O)CCCOc1ccc(O)cc1-c1cc(-c2ccccc2C(F)(F)F)n(-c2ccccc2)n1,Escherichia coli,Ames reverse mutation test,WP2 uvrA,"concentration not given, without S9",,mutagenicity,negative

# Some of these lines once more:
SMILES,tested on,test,system,setting,how to read,quantity,result
CC(C)OCCOCc1ccc(OCC(O)CN(N=O)C(C)C)cc1 (centres unmarked),Salmonella typhimurium,Ames test,TA1535,"1580 µg/plate, without metabolic activation",relative to: solvent control,revertant fold increase,0.6 fold
O=C(O)CCCOc1ccc(O)cc1-c1cc(-c2ccccc2C(F)(F)F)n(-c2ccccc2)n1,Escherichia coli,Ames reverse mutation test,WP2 uvrA,"concentration not given, without S9",,mutagenicity,negative
